# Assay results of several laboratories.
# Each line is one published result; not all experiments were run side by side. Numbers after ± are the reported error.
Compound,assay,test system,conditions,how to read,quantity,value
CC[C@H](C)[C@H](NC(=O)[C@H](Cc1ccccc1)NC(=O)[C@H](CCCCN)NC(=O)[C@H](CCCNC(=N)N)NC(=O)[C@H](Cc1ccccc1)NC(=O)[C@H](Cc1ccccc1)NC(=O)[C@H](CCCCN)NC(=O)[C@H](CO)NC(=O)[C@H](CC(C)C)NC(=O)[C@H](CCCNC(=N)N)NC(=O)[C@H](CCSC)NC(=O)[C@H](C)N)C(=O)N[C@@H](CC(C)C)C(=O)N[C@@H](CCCCN)C(=O)N[C@@H](CCCNC(=N)N)C(=O)N[C@@H](CCCCN)C(=O)N[C@@H](CCCCN)C(=O)O,circular dichroism,20% TFE in PBS,"200 µM, pH 7.4, 25 °C",,helicity,14.1%
O=C(O)C1OC(OC2C(COS(=O)(=O)O)OC(OC3C(C(=O)O)OC(OC4C(COS(=O)(=O)O)OC(OC5C(C(=O)O)OC(OC6C(COS(=O)(=O)O)OC(OC7C(C(=O)O)OC(OC8C(COS(=O)(=O)O)OC(OC9C(C(=O)O)OC(OC%10C(COS(=O)(=O)O)OC(OC%11C(C(=O)O)OC(Oc%12ccc([N+](=O)[O-])cc%12)C(O)C%11O)C(NS(=O)(=O)O)C%10O)C(OS(=O)(=O)O)C9O)C(NS(=O)(=O)O)C8O)C(OS(=O)(=O)O)C7O)C(NS(=O)(=O)O)C6O)C(OS(=O)(=O)O)C5O)C(NS(=O)(=O)O)C4O)C(OS(=O)(=O)O)C3O)C(NS(=O)(=O)O)C2OS(=O)(=O)O)C(O)C(O)C1OC1OC(COS(=O)(=O)O)C(O)C(O)C1NS(=O)(=O)O (centres unmarked),,"rat, heart","intravenous, 3600 µg/kg per day, 7 days, day 8",,organ-to-body weight ratio,0.41 ± 0.02
CC(C)CCCC(C)CCCC(C)CCOC1OC[C@@H](O)[C@H](O)[C@H]1O (some centres unmarked),filtration and HPLC-MS,water,room temperature,,aqueous solubility,31.2 ppm
CC(C)[C@H](NC(=O)CNC(=O)[C@H](CCC(N)=O)NC(=O)[C@H](C)N)C(=O)O,LC-MS/MS,"human, male, plasma","intravenous, 10 mg/kg three times daily, day 3, first dose, 10 min infusion, geometric mean",,clearance,617 mL/min/kg
CC(C)(Sc1ccncc1-c1ccc(C#N)c2ccccc12)C(=O)OC1OC(C(=O)O)C(O)C(O)C1O (centres unmarked),,"adult men, plasma","oral, 15 mg verinurad, mild renal impairment",baseline: normal renal function,AUC(0-inf) increase,15%
CC12CC(c3ccc(S(C)(=O)=O)cc3)C3=C4CCC(=O)C=C4CCC3C1CCC2(O)C(F)(F)C(F)(F)F (centres unmarked),,"human, fasted, plasma","oral, 4 mg, alone, without itraconazole",,"AUC(0-24h), geometric mean",146 ng·h/mL
Cc1ccccc1/N=N/c1ccc(/N=N/c2c(O)ccc3ccccc23)c(C)c1,,extracted rat blood QC samples,"0.5 µg/L, 2 h, room temperature, short-term stability",,measured concentration,0.497 µg/L
CCCC(CCC(=O)O)NC(=O)c1ccc2c(c1)OCO2 (centres unmarked),,"female Sprague-Dawley rat, plasma","oral, 200 mg/kg of parent drug",,Tmax,1.4 h
CN1CCC(N[C@@H]2CCc3[nH]c4c(C(N)=O)ccc(-c5ccccc5Cl)c4c3C2)CC1,,"mouse, plasma","oral, 10 mg/kg",,MRT(0-t),6.52 h
CC(O)c1cc(Cl)ccc1Cn1c(=S)[nH]c(=O)c2[nH]ccc21 (centres unmarked),,"dog, both sexes, plasma",100 mg/kg,baseline: dog over human 10 mg,exposure ratio,not detected
CC[C@H](C)[C@H](NC(=O)[C@@H]1CCCN1C(=O)CNC(=O)[C@H](Cc1ccccc1)NC(=O)[C@H](CC(N)=O)NC(=O)[C@H](CC(N)=O)NC(=O)[C@H](CO)NC(=O)[C@H](CO)NC(=O)[C@H](Cc1c[nH]cn1)NC(=O)[C@@H](NC(=O)[C@H](CC(C)C)NC(=O)[C@H](Cc1ccccc1)NC(=O)[C@H](CC(N)=O)NC(=O)[C@H](C)NC(=O)[C@H](CC(C)C)NC(=O)[C@H](CCCNC(=N)N)NC(=O)[C@H](CCC(N)=O)NC(=O)[C@@H](NC(=O)[C@H](C)NC(=O)[C@@H]1CSSC[C@H](NC(=O)[C@@H](N)CCCCN)C(=O)N[C@@H](CC(N)=O)C(=O)N[C@@H]([C@@H](C)O)C(=O)N[C@@H](C)C(=O)N[C@@H]([C@@H](C)O)C(=O)N1)[C@@H](C)O)C(C)C)C(=O)N[C@@H](CC(C)C)C(=O)N[C@@H](CO)C(=O)N1CCC[C@H]1C(=O)N[C@H](C(=O)N[C@@H](CC(N)=O)C(=O)N[C@H](C(=O)NCC(=O)N[C@@H](CO)C(=O)N[C@@H](CC(N)=O)C(=O)N[C@H](C(=O)N[C@@H](Cc1ccc(O)cc1)C(N)=O)[C@@H](C)O)C(C)C)[C@@H](C)O,thioflavin T fluorescence,phosphate buffer,"16 µM, pH 7.4, 25 °C",,half-time of amyloid formation,16.2 ± 1 h
N=C(N)NCCC[C@H](NC(=O)[C@@H]1CCCN1C(=O)[C@H](Cc1ccccc1)NC(=O)[C@@H]1CCCN1C(=O)[C@H](Cc1c[nH]cn1)NC(=O)[C@@H](N)Cc1ccccc1)C(=O)O,,"Sprague-Dawley rat male, plasma","oral gavage, 50 mg/kg",,volume of distribution,462 ± 319 L/kg
CC(=O)N[C@@H](CC(N)=O)C(=O)NCC(=O)N[C@@H](C)C(=O)N[C@@H](C)C(N)=O,1H NMR,sodium phosphate buffer 50 mM,"pH 7.8, 55 °C",,half-life of Asn form,2.6 h
CC[C@@H](C)[C@H]1NC(=O)[C@@H]([C@H](C)O)NC(=O)[C@@H](Cc2c[nH]cn2)NC(=O)CNC(=O)[C@@H](CCCNC(=N)N)NC(=O)CNC(=O)[C@@H](Cc2ccccc2)NC1=O,,"New Zealand rabbit, retina-choroid","eye drop, dose not given, 24 h",,retina-choroid concentration,~464 nM
NC1=N[C@@]2(c3ccc(F)cc3F)CO[C@@H](c3cn[nH]c3)C[C@H]2CS1,metabolic stability,"human, liver microsomes",,,scaled CLint,< 8 mL/min/kg
O=C(NCCCN(CCCCN(CCCNC(=O)c1cccc(=O)n1[O-])C(=O)c1cccc(=O)n1[O-])C(=O)c1cccc(=O)n1[O-])c1cccc(=O)n1[O-].[89Zr+4],radio-TLC,PBS,"5 d, pH 7.4, 37 °C, with: Zn^2+ 10-fold excess",,intact complex,97.7 ± 3.3%
Cc1cc(O)c2c(c1)C(=O)c1cc(O)cc(O)c1C2=O.Cc1cc(O)c2c(c1)C(=O)c1cc(O)cc(O)c1C2=O.Cc1nc(C)c(C)nc1C,,"Sprague Dawley rat, plasma","oral, 100 mg/kg",,MRT(0-t),10.6 ± 1.82 h
Cn1c(=O)oc2ccc(-c3ccc(CC(C#N)NC(=O)C4CNCCCO4)c(F)c3)cc21 (centres unmarked),,"human volunteers, plasma","80 mg single dose, fasted, geometric mean",,Cmax,823 ng/mL
COc1ccc(/C=C/c2ccc(-c3ccc(C)cn3)nc2)cc1,,acetonitrile,zinc(II) complex,,fluorescence lifetime,3.14 ns
CNC(=N)NC(=N)NCCCCCCNC(=N)NC(=N)NC,,Caco-2,"5 µM, 2 h",,efflux ratio,0.6
COCCOCCOCCOCCOCCOCCOCCOCCOCCOCCOCCOCCNC(=O)CCC1(Cc2ccccc2)c2ccccc2-c2ccc(-c3sc(-c4c5c(c(-c6sc(-c7ccc8c(c7)C(CCC(=O)NCCOCCOCCOCCOCCOCCOCCOCCOCCOCCOCCOCCOC)(Cc7ccccc7)c7ccccc7-8)c7c6OCCO7)c6nsnc46)N=S=N5)c4c3OCCO4)cc21 (centres unmarked),,aqueous solution,,,zeta potential,-24.3 ± 1.9 mV
C[C@H](NC(=O)COC(=O)[C@H](C)NC(=O)CO)C(=O)O,,water,"pH 6, 65 °C",,depolymerization half-life,0.17 h
CC[C@@H](C)[C@@H](NC(=O)[C@@H](C)NC(=O)[C@@H](CCCCN)NC(=O)[C@@H](CC(C)C)NC(=O)[C@@H](CC(C)C)NC(=O)[C@H](NC(=O)[C@@H](CCCCN)NC(=O)[C@@H](CC(C)C)NC(=O)[C@@H](C)NC(=O)[C@@H](CCCCN)NC(=O)[C@@H](CCCCN)NC(=O)[C@@H](CCCCN)NC(=O)[C@@H](C)NC(=O)[C@@H](CCCCN)NC(=O)[C@@H](CO)NC(=O)[C@@H](Cc1ccccc1)NC(=O)[C@H](NC(=O)[C@@H](CCCCN)NC(=O)[C@@H](CC(C)C)NC(=O)[C@@H](Cc1ccccc1)NC(=O)[C@@H](CO)NC(=O)[C@@H](CCCCN)NC(=O)[C@@H](Cc1c[nH]c2ccccc12)NC(=O)[C@@H](CCCCN)NC(C)=O)[C@H](C)O)[C@H](C)O)C(=O)N[C@H](CO)C(=O)N[C@H](CCCCN)C(N)=O,RP-HPLC temperature profiling,,"pH 2, 5-80 °C, unit not given",baseline: control peptide,self-association parameter,5.13
CC1(C)C(/C=C/C2=C(Oc3ccc(S(=O)(=O)O)cc3)C(=C/C=C3/N(CCCCS(=O)(=O)O)c4ccc(S(=O)(=O)[O-])cc4C3(C)C)/CCC2)=[N+](CCCCCC(=O)NCCC(O)(P(=O)(O)O)P(=O)(O)O)c2ccc(S(=O)(=O)O)cc21,,"mouse, male, whole blood","intravenous, 10 nmol, over 4 h",,elimination half-life,0.783 h
O=C(CCCCC[N+]#[C][99Tc-5]([C]#[N+]CCCCCC(=O)N[C@H]1C(O)O[C@H](CO)[C@@H](O)[C@@H]1O)([C]#[N+]CCCCCC(=O)N[C@H]1C(O)O[C@H](CO)[C@@H](O)[C@@H]1O)([C]#[N+]CCCCCC(=O)N[C@H]1C(O)O[C@H](CO)[C@@H](O)[C@@H]1O)([C]#[N+]CCCCCC(=O)N[C@H]1C(O)O[C@H](CO)[C@@H](O)[C@@H]1O)[C]#[N+]CCCCCC(=O)N[C@H]1C(O)O[C@H](CO)[C@@H](O)[C@@H]1O)N[C@H]1C(O)O[C@H](CO)[C@@H](O)[C@@H]1O (some centres unmarked),,nude mouse with U87 MG xenograft,,,tumour/brain ratio,19 ± 0.71
N=C(N)NCCC[C@@H]1NC(=O)[C@H](Cc2c[nH]c3ccccc23)NC(=O)[C@@H](CC2CCCCC2)NC(=O)[C@@H]2CCCN2C(=O)[C@@H](NC(=O)CCc2ccccc2)CCCNC1=O,,"C57BL/6J mouse, plasma plasma","oral, 1 mg/kg single dose",,MRT(0-inf),0.907 h

# Excerpt of the above:
Compound,assay,test system,conditions,how to read,quantity,value
Cc1ccccc1/N=N/c1ccc(/N=N/c2c(O)ccc3ccccc23)c(C)c1,,extracted rat blood QC samples,"0.5 µg/L, 2 h, room temperature, short-term stability",,measured concentration,0.497 µg/L
CCCC(CCC(=O)O)NC(=O)c1ccc2c(c1)OCO2 (centres unmarked),,"female Sprague-Dawley rat, plasma","oral, 200 mg/kg of parent drug",,Tmax,1.4 h
CN1CCC(N[C@@H]2CCc3[nH]c4c(C(N)=O)ccc(-c5ccccc5Cl)c4c3C2)CC1,,"mouse, plasma","oral, 10 mg/kg",,MRT(0-t),6.52 h
CC(O)c1cc(Cl)ccc1Cn1c(=S)[nH]c(=O)c2[nH]ccc21 (centres unmarked),,"dog, both sexes, plasma",100 mg/kg,baseline: dog over human 10 mg,exposure ratio,not detected
